Assay results pooled from the literature.
Protocols differ between the studies behind these lines. ± marks the error that the study gave.

| Compound | cell line | test | setting | inhibition [%] |
| --- | --- | --- | --- | --- |
| Cc1[nH]c(=S)[nH]c(=O)c1/N=N/c1nnc(S)s1 | Vero | cell viability, MTT | 2.5 µg/mL | 18.42 ± 0.04 |
| Cc1c(CN(C)C(=O)/C=C/c2cnc3c(c2)CC(N)C(=O)N3)oc2ccccc12 (stereo not drawn) | IMR-90 | cell growth or viability, resazurin | 30 µM, 72 h | 30 |
| COc1cc(NC(=O)c2cnn(-c3ccc([N+](=O)[O-])cc3)c2C(F)(F)F)c(OC)cc1Cl | LX-2 | cell growth or viability, MTS | 50 µM, 72 h | 2.08 |
| Cc1cc(C)nc(SCC(=O)Nc2ncc(Cc3cccc(OCc4cn(Cc5ccc(C#N)cc5)nn4)c3)s2)n1 | HGC-27 | cell viability, MTS | 10 µM | 53.1 ± 10.7 |
| Cc1nc(=S)[nH]c(C)c1/N=N/c1nnc(S)[nH]1 | Vero | cell viability, MTT | 10.0 µg/mL | 22.9 ± 0.61 |
| COCCn1cc(COc2cccc(Cc3cnc(NC(=O)CSc4nc(C)cc(C)n4)s3)c2)nn1 | HGC-27 | cell viability, MTS | 10 µM | 6.8 ± 4.4 |
| CCOC(=O)c1c(C(=O)OC)cn(CC(c2cn(C)c3ccccc23)c2cn(C)c3ccccc23)c1C | human Fibroblast | cell growth or viability, MTS | 20 µM, 24 h | 8.2 |
| CCc1ccc(OCc2nnc(SC3CCCC3=O)n2C(C)c2ccccc2)cc1 (stereo not drawn) | STF3A reporter cells | Wnt STF3A reporter, inhibitor | 10 µM, 24 h, viability-normalized | 64.2 |
| Nc1ncn([C@@H]2O[C@H](CO)[C@@H](O)[C@H]2O)c(=O)n1 | AML blasts, primary, RUNX1-mutated | CD34+ blast expansion | 270 nM, HUVEC co-culture | 0 |
| Cc1nc2c(F)cc(-c3nc(Nc4ccc(C(=O)NCCCCCC(=O)NO)cc4)ncc3F)cc2n1C(C)C | SK-OV-3 | cell growth or viability, CCK-8 | 0.3 µM, 48 h | 56.5 |
| Cc1nc(=S)[nH]c(C)c1/N=N/c1nnc(S)s1 | Vero | cell viability, MTT | 10.0 µg/mL | 17.7 ± 0.518 |
| COc1ccc(NC(=O)c2cnn(-c3ccc([N+](=O)[O-])cc3)c2C(F)(F)F)cc1OC | LX-2 | cell growth or viability, MTS | 50 µM, 72 h | 4.78 |
